Experimental data from different studies.
Every numbered part comes from another study and shows a few of its results, in no order.

Sample 1
Target: PABPC1L2, full length, GST fusion (mouse, UniProt A0ABA7IW68)
Technique: RNAcompete
Form: RNA
Sample: in vitro
Tested at: 20 nM
Setting: 7-mer, probes averaged, single round
Relative to: mean of 7-mers
Direction: higher = stronger binding
Construct (chain): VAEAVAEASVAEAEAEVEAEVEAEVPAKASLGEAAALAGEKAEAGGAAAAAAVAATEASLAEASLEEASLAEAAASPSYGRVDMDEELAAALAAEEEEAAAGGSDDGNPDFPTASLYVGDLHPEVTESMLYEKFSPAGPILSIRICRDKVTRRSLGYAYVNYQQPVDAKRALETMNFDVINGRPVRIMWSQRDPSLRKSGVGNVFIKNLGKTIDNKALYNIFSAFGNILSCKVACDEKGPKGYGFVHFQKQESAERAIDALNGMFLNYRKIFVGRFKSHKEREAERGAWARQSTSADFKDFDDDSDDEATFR
Strand | 7-mer Z-score
AAAUUGA | 1.43
AACACGU | 0.311
UUAUGUU | -0.304
ACCCACC | -0.264
CAUGUAG | -0.0482
UGCAAGU | -0.206
CAGCGUG | -0.251
CCCCGAG | -0.421
GACUCCA | -0.079
AUAUUGG | -0.0264
GGAGGAG | 0.247
CGACGGC | 0.037
CUUCACC | -0.306
AUGCACU | -0.204
UUUCGAC | -0.255
AUGGGGG | 0.495
CUGGUGA | -0.11
UGUGUGU | -0.42
UAAUUAG | -0.0935
UACUGCG | -0.264
AUACAGA | 0.129
CACAUCG | -0.00833
UGCAUUA | -0.0826
AAGCGAG | 0.271
UGCUUAG | -0.22

Sample 2
Target: RNA binding protein fox-1 homolog 2, RRM domain, GST-SBP tag (RBFOX2, Homo sapiens, UniProt O43251-10, residues 100-194)
Technique: RNA Bind-n-Seq
Form: RNA
Sample: in vitro
Tested at: 365 nM
Setting: natural RNA segment, single round, ends assumed
Relative to: no-protein control
Direction: higher = stronger binding
Shared flanks, not repeated: GGGAGUUCUACAGUCCGACGAUC … UGGAAUUCUCGGGUGCCAA
Construct (chain): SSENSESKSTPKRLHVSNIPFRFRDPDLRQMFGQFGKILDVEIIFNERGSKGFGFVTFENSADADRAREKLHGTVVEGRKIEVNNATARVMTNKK
Strand | RBNS enrichment (R)
UUACAAUUGGCUUGUAUGAGAAGAAAAAGUAUUUUUAUUGUUUUGAGUGAUGACGCAGAGACUCAGUGAACUUGAAAAUAGCAUUGCUUCGUGCACUUUGAAUACCAAUC | 1.24
UUGAUCAAACAAGUGUCUUUUACUUAAGAAGAAACUUGGUAAUCAUUGUGGCACCCACAGCAAGCAGUUGCCUUACCAGUGAAAAAGGUGCACUGAGGUAACAUCUAAAA | 0.891
UGUACCCCUAUUGUUAAAGAUUUGUGUCCUCUCAUUCCCUCUCUUCCUCUUGUAAGUGCCCUUCUAAUAAACUUUUCAUGGAAAAGCUCCUGUGCCAGGAGCUCAGUCUG | 0.64
CAUGUUUUUCUCACUUAGGUCUCACAAAAGUAUGAUUUUUCUCAAAAGUCCUGUAUUUAUGUAUUUUUUGGAUUCAGUGUGAGGCAUUGAAUUAAAGAUACCGAUUAAAG | 0.541
CCAGCUUGCUGGUCGGCUUUCCUCUAGAGAGAGCCGGUUUUGGGGCCAUUUCCCUUUGAUGCUUUGGUGGCCUUGCCCCGCUCUGCAGCACAGACAGGCCAGAUGCAUUU | 0.672
UAUCACACAAAGGCUGAUUUCUAAAAUAUAUAUAUAUUAAAACAAUAAAGUAUUUAUUUUGCCUAAAGUGUUUUAGUGGUUUCUUAAACUGCAACAUGAAGAUUUUGAAU | 1.24
UUGCCUCUUUCGUUUUACCUUCAUUUUUAGAUGAGGUAAAUGUUUUGUCUUUUACUUAAGGGUACUAAGCAAGGUCCACUCUAGUGUAGCUGAAGAGAAUGCAUAUUUGG | 0.73
UUUCUCACACCAAGGCAGAUGCUCCUCUGGUGGGAGGGUGCUGGCCCUGGCAAGAUUGAAGGAUGUGCAGGGCUUCCUCUCAGAGCCGCCCAAACUGCCGUUGAUGUGUG | 0.559
ACAGAUGGUAUCCCUUCCUGGAUCAUUCAUUUCACCUUGGUUUCUAACUUUAGGUUUACUUUCACUUGUUAUUUGACUUAGCAGGUGCAACAAAAACAAGAAACAAAUGU | 0.315
AACGUCUCAGGCUUAGAAAUAUAUGAAAUUGCUUUUUGAGAUUUUUGCGUGUGUGUUUGAUAUUUUUUACGAUAAUUAGCUGCAUGUGAAUUUUUCAUGACCUUCUUUAC | 0.63
AGAUGGUAAACCAGAUCUGUCUCCAAGACCUUGGCCUCUCCUUGGAGGACCUUUAGGUCAAACUCCCUAGUCUCCACCUGAGACCCUGGGAGAGAAGUUUGAAGCACAAC | 0.233
GAAUUGCUGUGCAAGGCUCACCCUCUCUCUGUCAACACUGGAAUAAACUUUGCCUUUUCUGAGUAGUUGUUUGCCUGCCUCUCUCUGGGCUCCAUCCUUGCCCCCAAACU | 0.89

Sample 3
Target: RING finger protein unkempt homolog, zinc fingers 1-6, GST-SBP tag (UNK, Homo sapiens, UniProt Q9C0B0, residues 30-357)
Sequence of UniProt Q9C0B0 (30-357, looked up): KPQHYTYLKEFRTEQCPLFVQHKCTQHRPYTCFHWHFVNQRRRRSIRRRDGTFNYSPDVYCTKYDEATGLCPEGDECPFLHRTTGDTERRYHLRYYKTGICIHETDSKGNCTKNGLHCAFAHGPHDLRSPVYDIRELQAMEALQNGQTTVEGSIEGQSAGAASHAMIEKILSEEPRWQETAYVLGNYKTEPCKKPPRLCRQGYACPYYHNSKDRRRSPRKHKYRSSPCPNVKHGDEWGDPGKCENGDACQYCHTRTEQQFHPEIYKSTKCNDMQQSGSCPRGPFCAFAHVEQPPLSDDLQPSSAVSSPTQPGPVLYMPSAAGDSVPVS
Technique: RNA Bind-n-Seq
Form: RNA
Sample: in vitro
Tested at: not given
Setting: RNA with constant flanks, human and mouse sites, ends assumed
Relative to: input RNA pool
Direction: higher = stronger binding
Shared flanks, not repeated: GGGAGUUCUACAGUCCGACGAUC … CAACAGAGGAUUGAGCAUCA
Strand | bound/input enrichment
UCAAAGGAGGCUAUGGAAAGGGCAAAUGGAAUGGAGCUGGAUGGUAGAAGAAUUCGGGUGGAUUAUUCUAUAACCAAGAGAGCGCACACACCAACACCAGGCAUCUACAUGGGCAGACCA | 0.231 ratio
CCAGGCAGAGGAGAUAUGGAACAGAAUGACUCUGACAACCGUAGAAUAAUUCGCUAUCCAGAUAGUCAUCAACUUUUUGUUGGUAACUUGCCACAUGAUAUUGAUGAAAAUGAGCUAAAG | 0.884 ratio
UCCAGAAGCUAUUUGAAACUAAGAGACUUUGUGCUUGUGAAGUUUUGUCAAUUUUUGCCCAGUUUCUCCCGGGAAAGAUUACUGCAAGGAUUCAGUGAAGAUAUGGCAAUACAGGCACAG | 0.27 ratio
UGGCGCCUGCGCUCCCCACUCGUGUUUUUAAGUGUAUUUUUAUAAGAUACAUGUAUUUACAAUUGAGCUUUUGUUACAUAAUGCUGAAAUGCUACUGGAGAUUAUGAAAAAUGUUUCAAU | 0.145 ratio
UAUCACAUACACAUAAAAAAGGGAAGAAAUUCGGCAGUGAAUGAAGAUUCCUCUGCAUUUUAGCAUUGCUUUUUCUACUGUAGUUGGCUUUUGAAUGAGGAUGACAAUGGAAGAGAUGAA | 0.47 ratio
GAAUUGAUUAAGGAAAAACUUAUUCUUCCCUAUGUGGAACUGGAUCUGCAUAGCUAUGAUUUAGGCAUAGAGAAUCGUGAUGCCACCAAUGACCAGGUCACCAAAGAUGCUGCAGAGGCU | 0.505 ratio
GAUUUUGAAACUGAGCACAAGUUGGAACCUGUAUUUGACUCUCCAAGGAUGUCCCGCCGCAGCUUGCGUCUGGUCACAACAGCUUCGUACAGCAGUGGGGACAGCCAGGCUAUUGAUUCG | 0.0844 ratio
CUCUCAAUCAUGGAGAAAUUGGAAUUCUUCGAUUUUUCUUAUGACCUUAACCUGUGUGGGCUGACAGAGGACCCAGAUCUUCAGGUUUCUGCGAUGCAGCACCAGACAGUGCUGGAACUG | 0.178 ratio
UCUUGUGGACAUGCCUGCACACACACUGAGCACAUGGCAGCUCUCUCCCCUGAAAAGGAUCCAUGUUCAUACAGAACGGAAAUGUGUUGCCUUCAUUGUCCCUAUCCCCAUCUUCUGUUC | 0.159 ratio
UCACCACAGAGCAUUUUAGAUGAUGUUGCCAUGGUACUAGAUGAAGAAGCAGAAGUUUUUAUAGUCAAAAUGUGGAGAUUAUUGAUAUAUGAAACAGAAGCCAAGAAAAUUGGCCUUGUG | 0.595 ratio
UGCGUCCUUUUUCGUUUUUCGGAUGAUGCCUUCAAUACUACCUUUAUUUCCACCAUAGGAAUAGACUUCAAGAUCAAAACAGUUGAAUUACAAGGAAAGAAGAUCAAGCUACAGAUAUGG | 0.281 ratio

Sample 4
Target: Prothrombin, mature alpha-thrombin (F2, Homo sapiens, UniProt P00734)
Technique: aptamer microarray, sandwich
Form: DNA with 2'F-ANA
Sample: in vitro
Tested at: 200 nM
Setting: whole 15-mer aptamer, many near background
Together with: Cy3 exosite-II aptamer, 400 nM
Direction: higher = stronger binding
Strand: GGTTGGTGTGGTTGG
Modification | mean fluorescence intensity
2'F-ANA at 1 2 4 6 7 8 9 14 15 | 61.7 a.u.
2'F-ANA at 1 2 4 9 10 11 14 | 46.4 a.u.
2'F-ANA at 1 2 3 5 9 10 11 12 13 14 15 | 61.7 a.u.
2'F-ANA at 1 2 5 6 7 14 | 69.5 a.u.
2'F-ANA at 1 2 3 4 6 9 11 | 123 a.u.
2'F-ANA at 2 3 4 5 9 10 11 12 13 | 52.4 a.u.
2'F-ANA at 2 3 8 9 10 11 12 13 14 | 274 a.u.
2'F-ANA at 1 4 5 6 7 9 11 12 13 | 79.3 a.u.
2'F-ANA at 1 2 4 5 6 9 12 15 | 104 a.u.
2'F-ANA at 1 2 3 7 9 10 11 13 14 15 | 53.7 a.u.
2'F-ANA at 2 3 4 5 8 13 14 | 63.8 a.u.
2'F-ANA at 1 3 6 9 10 11 12 13 14 15 | 59.3 a.u.
2'F-ANA at 1 2 5 6 7 12 15 | 101 a.u.
2'F-ANA at 2 4 5 6 8 10 11 15 | 59.8 a.u.
2'F-ANA at 4 6 7 11 12 13 15 | 275 a.u.
2'F-ANA at 1 2 5 8 10 12 13 14 | 49 a.u.
2'F-ANA at 2 4 5 11 13 14 15 | 65.1 a.u.
2'F-ANA at 1 3 4 5 7 8 10 11 | 113 a.u.
2'F-ANA at 2 3 4 5 6 8 9 10 14 | 52.5 a.u.
2'F-ANA at 3 4 5 7 11 13 14 15 | 51.3 a.u.
2'F-ANA at 2 6 7 8 9 10 11 14 15 | 84 a.u.
2'F-ANA at 6 7 8 9 10 11 13 14 | 107 a.u.
2'F-ANA at 2 8 9 10 13 15 | 105 a.u.
2'F-ANA at 4 5 6 8 9 10 11 13 14 | 48.4 a.u.
2'F-ANA at 1 4 6 9 10 12 13 | 51.2 a.u.

Sample 5
Target: Sal-like protein 4, full length isoform A (SALL4, Homo sapiens, UniProt Q9UJQ4, residues 1-1053)
Sequence of UniProt Q9UJQ4 (whole entry, looked up): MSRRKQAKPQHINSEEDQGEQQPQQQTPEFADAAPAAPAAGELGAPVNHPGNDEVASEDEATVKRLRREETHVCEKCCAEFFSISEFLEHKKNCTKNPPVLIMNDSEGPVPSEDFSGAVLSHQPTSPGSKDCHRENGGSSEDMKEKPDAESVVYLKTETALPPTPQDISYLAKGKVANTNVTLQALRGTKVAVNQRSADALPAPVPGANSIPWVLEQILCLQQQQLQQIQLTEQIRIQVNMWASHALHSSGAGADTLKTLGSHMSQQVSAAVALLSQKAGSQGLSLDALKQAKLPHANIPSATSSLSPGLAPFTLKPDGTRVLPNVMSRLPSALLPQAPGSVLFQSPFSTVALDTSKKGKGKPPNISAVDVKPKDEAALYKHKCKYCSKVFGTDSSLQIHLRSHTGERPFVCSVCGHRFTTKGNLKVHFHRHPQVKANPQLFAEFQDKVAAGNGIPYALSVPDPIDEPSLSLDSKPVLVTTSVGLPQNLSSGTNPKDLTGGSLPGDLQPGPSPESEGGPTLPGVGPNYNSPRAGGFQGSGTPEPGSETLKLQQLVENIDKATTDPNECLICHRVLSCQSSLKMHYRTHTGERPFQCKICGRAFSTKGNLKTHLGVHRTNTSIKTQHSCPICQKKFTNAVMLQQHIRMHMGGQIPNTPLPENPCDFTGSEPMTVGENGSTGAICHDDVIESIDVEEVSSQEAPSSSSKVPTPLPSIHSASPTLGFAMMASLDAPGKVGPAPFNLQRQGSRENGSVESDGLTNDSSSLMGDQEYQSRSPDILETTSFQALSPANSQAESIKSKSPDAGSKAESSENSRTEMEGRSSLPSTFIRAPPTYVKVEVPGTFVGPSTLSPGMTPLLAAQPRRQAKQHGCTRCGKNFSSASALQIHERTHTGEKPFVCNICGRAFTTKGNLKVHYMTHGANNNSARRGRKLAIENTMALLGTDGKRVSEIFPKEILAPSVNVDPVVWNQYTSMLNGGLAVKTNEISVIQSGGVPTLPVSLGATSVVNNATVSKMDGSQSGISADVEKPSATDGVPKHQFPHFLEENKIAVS
Technique: universal PBM
Form: double-stranded DNA, one strand shown
Sample: in vitro
Tested at: 600 nM
Setting: 8-mer, flanks averaged, mean of replicates
Direction: higher = stronger binding
Strand | E-score
AACGGGGC | -0.213
CGGTCCCC | -0.399
CCTGGCGA | -0.242
ATGTAATC | 0.229
AGAAATGG | -0.0153
TAAACCGA | 0.129
AAACCCTA | 0.035
AGTCCTCG | -0.231
TCCGCAGA | -0.183
ACTATGCC | 0.124
AACAATCC | 0.176
CGTGTCAC | -0.143
AAATGCTT | 0.14
CGCGGGCA | -0.267
AGCGTGAT | -0.0199
CTCGAATA | 0.0232
AAGGGTCT | -0.0679
AACCGCGG | -0.271
AGCGTGGG | -0.299

For quick reference, copied from above (sample 4):
Modification | mean fluorescence intensity
2'F-ANA at 1 2 3 4 6 9 11 | 123 a.u.
2'F-ANA at 1 4 6 9 10 12 13 | 51.2 a.u.
2'F-ANA at 4 6 7 11 12 13 15 | 275 a.u.
2'F-ANA at 2 6 7 8 9 10 11 14 15 | 84 a.u.
2'F-ANA at 1 2 3 5 9 10 11 12 13 14 15 | 61.7 a.u.
2'F-ANA at 6 7 8 9 10 11 13 14 | 107 a.u.
2'F-ANA at 2 4 5 11 13 14 15 | 65.1 a.u.
2'F-ANA at 1 2 5 6 7 12 15 | 101 a.u.
2'F-ANA at 4 5 6 8 9 10 11 13 14 | 48.4 a.u.
2'F-ANA at 1 4 5 6 7 9 11 12 13 | 79.3 a.u.
2'F-ANA at 1 2 5 6 7 14 | 69.5 a.u.
